Results gathered from unrelated publications.
Protocols differ between the studies behind these lines. “And” joins repeats or separate records; there may be more than shown. ± gives the spread as reported.

The haematocrit of `CC(=O)NCC(=O)NCC(=O)N[C@H](C(=O)N[C@@H](Cc1ccc(O)cc1)C(=O)N[C@@H](CO)C(=O)N[C@H]1CSSC[C@@H](C(=O)N[C@@H](CCCNC(=N)N)C(=O)N2CCC[C@H]2C(=O)N[C@@H](CCC(N)=O)C(=O)N[C@@H](CCCNC(=N)N)C(=O)NCC(=O)NCCC(=O)N[C@@H](CCCCNC(=O)CN(CC(=O)NCCCC[C@H](NC(=O)CCNC(=O)CNC(=O)[C@H](CCCNC(=N)N)NC(=O)[C@H](CCC(N)=O)NC(=O)[C@@H]2CCCN2C(=O)[C@H](CCCNC(=N)N)NC(=O)[C@@H]2CSSC[C@H](NC(=O)[C@H](CO)NC(=O)[C@H](Cc3ccc(O)cc3)NC(=O)[C@@H](NC(=O)CNC(=O)CNC(C)=O)[C@@H](C)O)C(=O)N[C@@H](Cc3c[nH]cn3)C(=O)N[C@@H](Cc3ccccc3)C(=O)NCC(=O)N[C@@H](C)C(=O)N[C@@H](CC(C)C)C(=O)N[C@@H]([C@@H](C)O)C(=O)N[C@@H](Cc3c[nH]c4ccccc34)C(=O)N[C@@H](C(C)C)C(=O)N2)C(N)=O)C(=O)CCN)C(N)=O)NC(=O)[C@H](C(C)C)NC(=O)[C@H](Cc2c[nH]c3ccccc23)NC(=O)[C@H]([C@@H](C)O)NC(=O)[C@H](CC(C)C)NC(=O)[C@H](C)NC(=O)CNC(=O)[C@H](Cc2ccccc2)NC(=O)[C@H](Cc2c[nH]cn2)NC1=O)[C@@H](C)O` is reported as 40.8% (healthy BALB/c mice; subcutaneous, 0.16 mg/kg, 8 d, single dose).
`O=C(O)C1=CC(=C(c2ccc(O)c(C(=O)O)c2)c2ccc(O)c(C(=O)O)c2)C=CC1=O` — result for macrophage infiltration: “decreased” (immunohistochemistry, item: F4/80; C57BL/6J mouse MC-38 tumour, tumour core and margin; peritumoral, dose not given; relative to: vehicle).
With `Cn1cc(Nc2nc(N)nc(-c3cccc(-n4ccc5cc(C6CC6)cc(F)c5c4=O)c3CO)n2)cn1` the inhibition was 76.1% (CD63 upregulation, anti-IgE-induced; human, multiple ascending dose, whole blood basophils ex vivo; 150 mg twice daily, day 14, 12 h).
`CN[C@@H]1COc2c(S(=O)(=O)NC(=O)Nc3c4c(cc5c3CCC5)CCC4)cnn2C1` gave an inhibition of 53.9% (item: IL-18; human participants, whole blood ex vivo; 150 mg single dose, 48 h, IL-18, circulating, adjusted for, added: LPS/ATP; relative to: baseline).
`N#Cc1ccc2c(c1)[C@H]1CCCN(C(=O)c3ccc4[nH]cnc4c3)[C@H]1C2` — result for “change in fasting insulin”: -20.7% (human, plasma; 360 mg, day 15; relative to: baseline, placebo-corrected).
`N#Cc1ccc2c(-c3ccncc3)c(-c3ccc(F)cc3)nn2c1` — result for “log2 fold change”: 0.484 (kinase binding, competitor, MIB/MS competition, item: HRK1; Candida albicans cell lysate; 10 µM; relative to: DMSO).
`COc1ncc(-c2nc3c(n2C(C)C)[C@H](c2ccc(Cl)cc2)N(c2cc(Cl)cn(C)c2=O)C3=O)c(OC)n1`: “best overall response” 0% (International Working Group criteria; human acute myeloid leukemia patients; oral, 350 to 400 mg, response Unknown, high-dose, other doses).
Under “median tactile threshold change”, `N=C(N)NCCC[C@H](NC(=O)[C@H](CCCNC(=N)N)NC(=O)[C@H](CCCCN)NC(=O)[C@H](CCC(N)=O)NC(=O)[C@H](CCCCN)NC(=O)[C@H](Cc1ccc(O)cc1)NC(=O)[C@@H](N)CCCCN)C(=O)N[C@@H](CO)C(=O)N[C@@H](Cc1ccc(O)cc1)C(=O)N[C@@H](CCCCN)C(=O)O` is recorded as -1 (dentin hypersensitivity patients; 10 µg/tooth single, day 22, unit not given; relative to: baseline).
Under “concentration for aPTT prolongation”, `C[C@@H]1CCC[C@H](n2cnc(-c3cc(Cl)ccc3-n3cc(Cl)nn3)cc2=O)c2cc(ccn2)-c2c(cnn2C(F)F)NC1=O` is recorded as 24 µM (rat plasma; IC1.5× aPTT, STA-PTT reagent).
Under “pathway activation z-score”, `Cn1cc(Nc2nccc(-c3ccc4c(c3)CN(C3COC3)CC[C@H]4NC(=O)c3cn(C(C)(C)C)nn3)n2)cn1` is recorded as 2.83 (item: Th1 Pathway; splenic B cells, mouse; in vivo, 30 mg/kg, IgD-activated B cells; relative to: vehicle, positive = activation).
`CSCCNc1nc(SCCC(F)(F)F)nc2c1ncn2[C@@H]1O[C@H](COP(=O)(O)OP(=O)(O)C(Cl)(Cl)P(=O)(O)O)[C@@H](O)[C@H]1O`: “patients with IPA above 90%” 0% (light transmittance aggregometry; human patients, platelet-rich plasma; dose not given, 30 min, added: ADP 20 µM; relative to: patients).
`CN(C)C(=O)Oc1cccc([N+](C)(C)C)c1` gave a train-of-four ratio of 99.3 (neuromuscular block reversal; rat; dose not given, 20.5 (unit not given), added: cisatracurium; relative to: T1 twitch).
`CCOc1c([C@H](C)n2nc(C)c3c(N)ncnc32)cc(Cl)c(F)c1[C@@H]1CNC(=O)C1` — result for “plasma protein level change”: -77% (Olink proximity extension proteomics, item: CXCL13; human FL or MZL patients, plasma; dose not given, week 8; relative to: baseline).
`CC(C)NCC(O)c1ccc(O)c(O)c1` (stereo not drawn) gave a sarcomere length of 1.52 µm (ventricular cardiomyocytes, C57BL/6 mouse; dose not given, 0.836 s).
`C=Cc1c(C)c2cc3nc(c(CC(=O)O)c4[nH]c(cc5nc(cc1[nH]2)C(C)=C5CC)c(C)c4C(=O)O)[C@@H](CCC(=O)O)[C@@H]3C`: “effector memory T cells” 28.3% and 37.7% and 47.3% (flow cytometry; 4T1 tumour-bearing mice, spleen; dose not given).
For `c1ccc(-c2n[nH]cc2-c2ccnc3ccccc23)nc1`, “log2 fold change” read 1.26 (kinase binding, competitor, MIB/MS competition, item: KIN3; Candida albicans cell lysate; 1 µM; relative to: DMSO).
`C[C@H](Oc1ccc(Br)cc1-c1ccon1)C(=O)O` — result for “peak amplitude change”: -8.69% (muscle velocity recovery cycles; human, tibialis anterior muscle; 400 mg twice daily, multiple doses, frequency ramp, last response at 15 Hz; relative to: placebo).
`Cc1noc(C)c1-c1cc(C(O)(c2ccccn2)c2ccccn2)c2nc(C3CC3)[nH]c2c1` gave a maximum inhibition of 24.2% (item: CCR2 expression; human, peripheral blood; 2 mg, day 1, 1599 study).
`Cc1cc(Nc2ccc(S(F)(F)(F)(F)F)cc2)n2nc(C(C)(F)F)nc2n1` has a DHO concentration of 3.63 ± 0.21 µM (item: dihydroorotate; female CD-1 mice, pooled urine; oral, 300 mg/kg daily, 0-8 h after dose 3).
For `CC#CC(=O)N[C@H]1CCCN(c2c(F)cc(C(N)=O)c3[nH]c(C)c(C)c23)C1`, the B cells was -9.8 % change (human, peripheral blood; 3 mg once daily, day 15; relative to: baseline).
For `Cc1ncc(Cl)cc1NCc1ccc(C(=O)N[C@@H](CC2CCCC2)C(=O)NC2CC2)s1`, “p21-luciferase fold increase” read 4 fold (mice, K562-p21-ffLuc xenograft; oral gavage, 150 mg/kg single, 4 h; relative to: vehicle).
`CC(c1cc2ccccc2s1)N(O)C(N)=O` (stereo not drawn) has an amount of 76 ± 26 pg/mL blood (item: 4-HDHA; human whole blood; 3 µM, added: Escherichia coli).
Under “median response score”, `COc1cc(Nc2ncc3c(n2)-c2ccc(Cl)cc2C(c2c(F)cccc2OC)=NC3)ccc1C(=O)O` is recorded as 2 (mice, NB-1382 neuroblastoma xenograft; 20.8 mg/kg; direction not given).
With `CC(C)[C@H](C(=O)Nc1ccc(C(=O)NO)cc1)c1ccccc1` the tumour volume was 2.4 cm³ (volumetric MRI; human, left internal auditory canal tumour; dose not given, 224 days).
Under “time on bar”, `CCN(CC)CCNC(=O)c1cc(S(C)(=O)=O)cnc1OC.Cl` is recorded as 0.93 s and 1.19 s and 1.82 s and 4.01 s and 1.09 s (catalepsy bar test; female CD-1 mice; intraperitoneal, 200 mg/kg, 90 min after dosing).
`Cc1cc(F)cc2c(CCC(=O)N[C@@H]3C(=O)NC[C@H]3O)c(-c3ccc(F)cc3)[nH]c12` has a nephrin H-score of 113 and 98 and 125 and 117 and 74.6 (immunohistochemistry; mice, APOL1 G2, single copy, kidney; oral, 30 mg/kg twice daily, added: IFNγ plasmid injection; direction not given).
`CCCCCN1C[C@H](O)[C@@H](O)[C@H](O)[C@@H]1CO`: “increased sphingolipid species” 3 (Hexb-/- mouse, cerebral cortex; 300 mg/kg/day, unit not given; relative to: 30 mg/kg/day).
The hematocrit of `Cc1cnc(Nc2ccc(OCCN3CCCC3)cc2)nc1Nc1cccc(S(=O)(=O)NC(C)(C)C)c1` is reported as 44.2% and 43.6% and 48.2% and 46.3% and 49.4% and 48.3% (BALB/c mice rhEPO-induced polycythemia; 120 mg/kg).
`N#CCC1CCN(c2nc(Nc3ccc(N4CCC(O)CC4)cc3)c3c(=O)[nH]ncc3n2)CC1` — result for “fold change from baseline”: -1.27 (Olink multiplex, item: CDCP1; human, serum; 40 mg, day 15; relative to: baseline).
`Cc1n[nH]c2ccc(-c3cc(OC[C@@H](N)Cc4ccccc4)cnc3-c3ccoc3)cc12` — result for “log2 fold change”: -1.74 (kinase binding, competitor, MIB/MS competition, item: CEK1; Candida albicans cell lysate; 10 µM; relative to: DMSO).
`C[C@@H](O)CCOC(=O)C[C@@H](C)O` has a metabolite level of -5.11 ± 0.69 µmol/L (item: C8:1-DC acylcarnitine; human, plasma; 60 min, log2-transformed values).
`OC(CCN1CCCCC1)(c1ccccc1)C1CC2C=CC1C2` (stereo not drawn) — result for “change, Gamma EEG power, in Fz-Cz”: 14% (resting-state EEG; healthy elderly humans; oral, 2 mg, eyes open, LS mean; relative to: baseline).
For `C[C@@H](NC(=O)N1C(=O)[C@H](Cc2ccnc(N)c2)[C@H]1C(=O)O)C1CCCCC1`, “time to aPTT Emax” read 72 h (human; iv infusion, 1.5 mg/kg/h, 24 h; relative to: baseline).
`C[C@H]1C[C@H]2CSC(N)=N[C@@]2(c2nc(NC(=O)c3ccc(OC(F)F)cn3)cs2)CO1`: “percent change from baseline” -53.7% (item: Aβ1-40; healthy adults, plasma; 5 mg once daily, day 4; relative to: placebo).
Under “log2 fold change”, `N#Cc1ccn2c(-c3ccncc3)c(-c3ccc(F)cc3)nc2c1` is recorded as -0.18 (kinase binding, competitor, MIB/MS competition, item: SCH9; Candida albicans cell lysate; 10 µM; relative to: DMSO).
Under “change from baseline”, `N#Cc1ccc2c(c1)[C@H]1CCCN(C(=O)c3ccc4[nH]cnc4c3)[C@H]1C2` is recorded as -1.5 mmHg (item: diastolic blood pressure; human; 80 mg once daily, day 28, adjusted mean; relative to: placebo).
The percent change of `NC(=O)c1cnc2[nH]ccc2c1N[C@@H]1[C@@H]2CC3C[C@H]1C[C@@](O)(C3)C2` is reported as 0.23% (CD8+ effector T cells, flow cytometry; Caucasian humans, peripheral blood; 20 mg single dose; relative to: baseline).
`COc1ccccc1[C@H](Cn1c(=O)n(C(C)(C)C(=O)O)c(=O)c2c(C)c(-c3ncco3)sc21)OC1CCOCC1`: “blood LDL level” 120 ± 42.5 mg/dL (human; 50 mg, post-treatment).
The sarcomere length of `O=C(O)CNC(=O)Cc1ccccc1` is reported as 1.69 µm (ventricular cardiomyocytes, C57BL/6 mouse; dose not given, 0.284 s).
For `COc1nnc2ccc(N3CCC(c4ccc(OCCN5CCN(C)C(=O)[C@H]5C)cc4)CC3)nn12`, “time above HEXIM1 threshold” read 5.19 h (human patients; 10 mg once daily, above baseline variability).
`Cn1cc([C@H]2C[C@H]3CSC(N)=N[C@@]3(c3ccc(F)cc3F)CO2)cn1`: “brain Aβ40 level” 1.73 ng/g (item: Aβx-40; wild-type mouse, brain; subcutaneous, 10 mg/kg, 6 h).
`C=CCn1c(=O)c2cnc(Nc3ccc(N4CCN(C)CC4)cc3)nc2n1-c1ccc2c(n1)[C@@](O)(CC)CC2` — result for “tumour growth inhibition”: 26.2% (LS-513 xenograft, BALB/c nude mice; oral, 60 mg/kg once daily x 21, day 23; relative to: vehicle).

Repeated from above:
The sarcomere length of `O=C(O)CNC(=O)Cc1ccccc1` is reported as 1.69 µm (ventricular cardiomyocytes, C57BL/6 mouse; dose not given, 0.284 s).
For `Cc1ncc(Cl)cc1NCc1ccc(C(=O)N[C@@H](CC2CCCC2)C(=O)NC2CC2)s1`, “p21-luciferase fold increase” read 4 fold (mice, K562-p21-ffLuc xenograft; oral gavage, 150 mg/kg single, 4 h; relative to: vehicle).
For `C[C@@H](NC(=O)N1C(=O)[C@H](Cc2ccnc(N)c2)[C@H]1C(=O)O)C1CCCCC1`, “time to aPTT Emax” read 72 h (human; iv infusion, 1.5 mg/kg/h, 24 h; relative to: baseline).
Under “median tactile threshold change”, `N=C(N)NCCC[C@H](NC(=O)[C@H](CCCNC(=N)N)NC(=O)[C@H](CCCCN)NC(=O)[C@H](CCC(N)=O)NC(=O)[C@H](CCCCN)NC(=O)[C@H](Cc1ccc(O)cc1)NC(=O)[C@@H](N)CCCCN)C(=O)N[C@@H](CO)C(=O)N[C@@H](Cc1ccc(O)cc1)C(=O)N[C@@H](CCCCN)C(=O)O` is recorded as -1 (dentin hypersensitivity patients; 10 µg/tooth single, day 22, unit not given; relative to: baseline).
`Cc1noc(C)c1-c1cc(C(O)(c2ccccn2)c2ccccn2)c2nc(C3CC3)[nH]c2c1` gave a maximum inhibition of 24.2% (item: CCR2 expression; human, peripheral blood; 2 mg, day 1, 1599 study).
